# Measured values from different studies.
# Lines come from different studies, so protocols differ. “And” joins repeats or separate records; there may be more than shown.
Compound,cell line,test,setting,scale,measurement,result
Cc1cc(Nc2ncc(Cl)c(Nc3ccccc3S(=O)(=O)C(C)C)n2)c(OC(C)C)cc1C1CCNCC1,CLB-BAR,"phosphoproteomics LC-MS/MS, measured: ASAP3 phosphorylation","200 nM, 60 min",baseline: untreated,log2 fold change,-4
c1ccc2[nH]ccc2c1,HCT-8,"RNA-seq, measured: IGHE",concentration not given,,"mRNA level, LS mean",2.2 counts per million
O=C(NOC[C@H](O)CO)c1ccc(F)c(F)c1Nc1ccc(I)cc1F,A-375,,"0.03906 µM, 72 h",,viability,91.4%
CCn1cc(-c2cc(Cn3ccnc3)cc3c2CCN([C@H](c2cc(OC)ccn2)C2CC2)C3=O)c(C(F)(F)F)n1,JeKo-1,"cell growth, inhibitor",120 h,,EC50,27.9 nM
C[C@H](Nc1ccc2c(c1)OCCn1cc(N3C(=O)OC[C@H]3C(F)F)nc1-2)C(N)=O,HCC202,CellTiter-Glo,120 h,,Hill coefficient GR curve,1.12
Cc1sc2c(c1C)C(c1ccc(Cl)cc1)=N[C@@H](CC(=O)NCCCCCCCCNC(=O)COc1cccc3c1C(=O)N(C1CCC(=O)NC1=O)C3=O)c1nnc(C)n1-2 (stereo partly drawn),RAW264.7,"macrophage polarization, flow cytometry","0.25 µg/mL, 24 h, together with: IL-4 20 ng/mL pretreatment",,CD86+ cells,1.23% and 1.42% and 1.5%
Cn1cc(-c2ccc(-c3cncc(Cl)c3N3CCC4(CCNC4=O)CC3)cc2)cn1,COLO 205,"gene expression, microarray, measured: DRAM1 mRNA","concentration not given, 2 h",baseline: untreated cells,log2 fold change,1.9
O=c1[nH]nc(OCCCc2ccc(Cl)cc2)c(NCc2cccnc2)c1Br,HEK-293T,"RNA-seq GSEA, measured: Hallmark androgen response",concentration not given,direction not given,normalized enrichment score,0.961
CC1=CC[C@H]2[C@@H]([C@@H]1CC[C@H]1[C@]3(C)CC[C@H](O)C(C)(C)O[C@H]3CC[C@]1(C)O)C(C)(C)CC[C@]2(C)O,KB-C2 (P-gp overexpressing),drug efflux,"10 µM, 30 min",,intracellular [3H]-paclitaxel remaining,81.6%
CC[C@@H]1C(=O)N(C)c2cnc(Nc3ccc(C(=O)N[C@H]4CC[C@H](N5CCN(CC6CC6)CC5)CC4)cc3OC)nc2N1C(C)C,HD-MB03,cell growth,"168 h, DMSO",,IC50,21.3 nM
Cc1cc(C)n(-c2nc(-c3ccc(Cl)cc3)c3c(NC(=O)c4ccccc4)nnc-3[nH]2)n1,SN12C,SRB,"10 µM, NCI60 single-dose screen",baseline: untreated,cell growth,92.4%
O=C(O)CCNC(=O)c1ccc(/N=N/c2ccc(O)c(C(=O)O)c2)cc1,primary rat hippocampal/cortical neuron-glia cultures,,"1 µM, together with: 1 µM α-synuclein oligomers",,reversal of trafficking deficit,-18.5%
O=C1[C@H](Cc2ccc(O)cc2)N2C(=O)CCN(C(=O)NCc3ccccc3)[C@H]2CN1Cc1cccc2ccccc12,HD-MB03,cell growth,DMSO,,IC50,524 nM
COc1cnc2cccc(N3CCc4c(cc(Cn5ccnc5C)cc4-c4cn(C)nc4C(F)(F)F)C3=O)c2c1,Calu-6,"cell growth, inhibitor",120 h,,EC50,3680 nM
COC(=O)C1CCN(C(=O)c2ccc(N(CCCO)Cc3cnc4nc(N)nc(N)c4n3)cc2)CC1,786-O,"high-content imaging, measured: MitoTracker Red uptake",10 µM,,mitochondrial toxicity,-1.43%
C=C1CC(C(=O)Nc2cc(C(=O)NC)cc(-c3sccc3CCCCCCCC)c2OC)C1,HMC3 expressing human TREM2,fluorescent latex beads,"25 µM, 1 h",baseline: control,phagocytosis,155%
CC[C@@]1(O)C(=O)OCc2c1cc1n(c2=O)Cc2cc3c(CN(C)C)c(O)ccc3nc2-1,HD-MB03,cell growth,"168 h, single agent",,IC50,310 nM
COc1ccc(OC)c(-c2nc3ccc(-c4nc5ccc(N6CCN(C)CC6)cc5[nH]4)cc3[nH]2)c1,SN12C,SRB,"10 µM, 48 h",,growth percent,106%
O=C(CCc1cc(C(=O)c2ccc(OC3CCCC3)cc2O)ccc1OCc1ccc2c(O)noc2c1)NCCOCCOCCOCCOCCOCCOCCNc1cccc2c1C(=O)N(C1CCC(=O)NC1=O)C2=O (stereo not drawn),UMSCC1 cells,"RT-qPCR, measured: FOSL1 target genes SNAI2, BMI1","concentration not given, 16 h",,mRNA level,inhibited
CCc1cc2c(cc1N1CCC(N3CCOCC3)CC1)C(C)(C)c1[nH]c3cc(C#N)ccc3c1C2=O,HD-MB03,cell growth,"168 h, DMSO",,IC50,585 nM
CCn1cc(-c2cc(Cn3ccoc3=N)cc3c2CCN([C@@H](C)c2cc(OC)ccn2)C3=O)c(C(F)(F)F)n1,AU565,"cell growth, inhibitor",120 h,,EC50,310 nM
